Measurements gathered from unrelated publications.
Numbered parts are unrelated; each lists some results of a single study.

Sample 1
Target: Histone acetyltransferase KAT6A, both winged helices, GST fusion (KAT6A, Homo sapiens, UniProt Q92794, residues 1-181)
Method: protein binding microarray
Molecule type: double-stranded DNA, one strand shown
Medium: in vitro
Tested at: not given
Setting: 8-mer, flanks averaged, mean of 2 arrays, mostly near background
Relative to: not given
Direction: higher = stronger binding
Measurement: E-score
Construct (chain): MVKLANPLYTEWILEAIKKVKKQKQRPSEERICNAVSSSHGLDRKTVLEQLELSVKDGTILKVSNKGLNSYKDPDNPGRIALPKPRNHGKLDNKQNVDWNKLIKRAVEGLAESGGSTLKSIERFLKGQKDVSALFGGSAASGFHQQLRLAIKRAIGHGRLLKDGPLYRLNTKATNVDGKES
CCCAGTAA: -0.109
AGCGGGGC: 0.218
ATTCACAA: -0.106
AGGACGCA: 0.0533
CTCCGCGA: 0.0982
AGGTTCTG: 0.00526
GTCAAAAC: 0.143
CAGGCTAA: -0.205
CTGCAATC: -0.0255
CAGAGATA: -0.136
ACTGTCGC: 0.0951
GCCTAGGC: 0.106
CCTGATCC: -0.189
GCGTTGCA: 0.122
CTGTACGC: 0.19
GCACTTAC: 0.0323
GAGCCCAA: -0.195

Sample 2
Target: Fragile X messenger ribonucleoprotein 1, C-terminal low-complexity region (Fmr1, Mus musculus, UniProt P35922)
Method: RNA Bind-n-Seq
Molecule type: RNA
Medium: in vitro
Tested at: 200 nM
Setting: whole 134-nt RNA, ends assumed
With: 150 mM KCl
Relative to: input library
Direction: higher = stronger binding
Measurement: log2 enrichment
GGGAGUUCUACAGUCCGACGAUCUAACUUCAGAGGAGGAUCUGAUGGAUAUGGCAGUGGACGUGGAUUUGGGGAUGGCUAUAAUGGGUAUGGAGGAGGACCUGGAGGUGGCAAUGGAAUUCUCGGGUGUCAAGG: 0.289
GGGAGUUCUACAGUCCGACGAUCUAACUUUAGAGGAGGAUCUGAUGGAUAUGGCAGUGGACGUGGAUUUGGGGAUGGCUAUAAUGGGUAUGGAGGAGGACCUGGACGUGGCAAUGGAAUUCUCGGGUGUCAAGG: 0.0332
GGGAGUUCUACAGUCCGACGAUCAGUCCUGUGCUACACAUCGUAUGUACCGAAUCGGGGUUUUGGGGUUUUGGGUUUUGGGAAAGUAUUAUGUUACGCCGUUCGGAUCUGCACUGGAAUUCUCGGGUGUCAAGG: 0.565
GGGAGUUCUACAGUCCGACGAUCCACAGACAACACGCACCCACACAGACACAGAGGGAAGGGGUUCGGAUGGGGACAGGGUGCACAGCAGGGCGGGGUAGGACCCCAGCCCCUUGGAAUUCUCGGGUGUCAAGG: 1.16
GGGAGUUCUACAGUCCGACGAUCAGUCCUGUGCUACACAUCGUAUGUACCGAAUCGGGUUUUGGGUUUUGGGGUUUUGGGAAAGUAUUAUGUUACGCCGUUCGGAUCUGCACUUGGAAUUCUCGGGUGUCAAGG: 0.584
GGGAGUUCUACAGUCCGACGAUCACCAUGCAGGUGGGCAUCUUUGGGAAGUGGGGCAAGGGGGGGAUAGGGAGGAAAGUAACACUUUGGGAACAGGUGGUCCCAGGUCGUUUCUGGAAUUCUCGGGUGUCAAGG: 0.831
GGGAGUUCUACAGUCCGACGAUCUCAAGUCCUGUGCUACACAUCGUAUGUACCGAAUCGGGAAAGGGUGGGUUUGGGAAAGUAUUAUGUUACGCCGUUCGGAUCUGCACUUCCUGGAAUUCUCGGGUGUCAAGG: 1.26
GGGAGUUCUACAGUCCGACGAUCUGGGAGGUGGAUUUUGUUUAUUUUUUUAGCUCAUUUCCAGGGGUGGGAAUUUUUUUUUAAUAUGUUUCAUGAAUAAAGUUGUUUUUGAAAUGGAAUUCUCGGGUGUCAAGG: 0.0942
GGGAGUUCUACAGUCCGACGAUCGUCCUGUGCUACACAUCGUAUGUACCGAAUCGGGAAAAAGGGUUUUUGGGAAAAAGGGAAAGUAUUAUGUUACGCCGUUCGGAUCUGCACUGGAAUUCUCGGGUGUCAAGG: -0.485

Sample 3
Target: RING finger protein unkempt homolog, zinc fingers 1-6, GST-SBP tag (UNK, Homo sapiens, UniProt Q9C0B0, residues 30-357)
UniProt Q9C0B0, sequence (30-357, looked up): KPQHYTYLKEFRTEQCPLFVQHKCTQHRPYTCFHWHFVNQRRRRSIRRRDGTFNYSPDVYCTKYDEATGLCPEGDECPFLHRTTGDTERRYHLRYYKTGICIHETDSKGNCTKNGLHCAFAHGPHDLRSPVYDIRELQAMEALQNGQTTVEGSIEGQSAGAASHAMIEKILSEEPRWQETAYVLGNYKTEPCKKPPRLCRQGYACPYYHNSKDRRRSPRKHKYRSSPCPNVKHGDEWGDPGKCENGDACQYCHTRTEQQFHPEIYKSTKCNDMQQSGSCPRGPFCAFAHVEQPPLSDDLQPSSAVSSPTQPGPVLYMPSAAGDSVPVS
Method: RNA Bind-n-Seq
Molecule type: RNA
Medium: in vitro
Tested at: not given
Setting: RNA with constant flanks, ends assumed
Relative to: input RNA pool
Direction: higher = stronger binding
Measurement: bound/input enrichment
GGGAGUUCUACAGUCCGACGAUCUUCUAGCAGAGGCAAGAAUACAUAUUCAUAUACGCUUACUUAUGAAUUACCAUUUUAACAUUCCGAUAACAUGAAAUAUGGCCCUCUUGAAUUCUUGCUUUUAAGUUCCUUUUGAUAUGUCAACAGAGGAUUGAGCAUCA: 0.474 ratio
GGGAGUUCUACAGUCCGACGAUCUUACCUUUAUAAUGUAGCAGUGAAGUAAAUCAUUUUAGAACUUAAUAUCCAACUGAUCACCGUACAUAUUGUAAAUAAAAUGUAUUUUGAUGACAGCUCAGUUGAAUAUGGAUAAUAUGUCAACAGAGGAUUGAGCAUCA: 2.2 ratio
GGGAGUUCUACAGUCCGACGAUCUACUGCUGGUCCUGUACCAGAAACAUUUUCUUUUAUUGUUACUUGCUUUUUAAACUUUGUUCCGCCACUUAAAAUCUGCUUAUGGCACAAUUUGCCUCAAAAUCCAUUCCAAGUUGUAUACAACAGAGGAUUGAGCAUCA: 1.32 ratio
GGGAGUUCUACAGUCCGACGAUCGUGGAGGCCCUUUGUGCUGAACACCAAAUCAACCUAAUUAAGGUUGAUGACAACAAGAAACCCGGAGAAUGGGUAGGCCUUUGUAAAAUUGACAGAGAGGGGAAACCCCGUAAAGUGGUUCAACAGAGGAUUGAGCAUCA: 0.146 ratio
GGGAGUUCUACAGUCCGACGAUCUCGGUCUUCAAUAACAAGAACAGUGGCUUCUGGCACAGCAGCCUCAUUGACCGGAACCUCACCGAUUAUUUUGUCCCCUUCCUGCCCCUGGAGUACAAGCACCUGAAAAUGUGCAUCAGACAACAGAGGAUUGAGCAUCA: 0.177 ratio
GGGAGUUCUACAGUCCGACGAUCUUUCCAGACCAAGGAUACAGAGGCCGAGGCAGAGGCGAGUAUUACUCCAGAGGUCGGAGCUACCGAGGCUCUUAUGGGGGUCGUGGCAGAGGUGGUAGAGGGCACACUCGUGAGUAUCCUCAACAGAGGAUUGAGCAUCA: 0.256 ratio
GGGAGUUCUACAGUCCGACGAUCAGCCUGGGCAUUUCUGCAUUUGUGCCAGCUAACACUACAAAAUAGACUUAAUUAGAGAAAUUCCGACCCAGAAUUGCAGCUUCAACAACACAAAACAGGAAAGCUAGAAGAGGUUGCUGUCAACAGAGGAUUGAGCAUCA: 5.97 ratio
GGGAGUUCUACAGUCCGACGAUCGAUUCAUUGCCUGCUUUACUGGAAUUCUACAAAAUACACUAUUUGGACACUACAACAUUGACCGAACCAGUGGCCAGAUCAAGGCAGGGUAGUGGAGUGAUUCUCAGGCAGGAGGAGGCACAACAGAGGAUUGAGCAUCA: 0.29 ratio

Sample 4
Target: RNA binding protein fox-1 homolog 2, RRM domain, GST-SBP tag (RBFOX2, Homo sapiens, UniProt O43251-10, residues 100-194)
Method: RNA Bind-n-Seq
Molecule type: RNA
Medium: in vitro
Tested at: 365 nM
Setting: natural RNA segment, single round, ends assumed
Relative to: no-protein control
Direction: higher = stronger binding
Measurement: RBNS enrichment (R)
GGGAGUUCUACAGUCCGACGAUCAGGCCCGUCUCUCCUGUAGGCUUUUAAUUCAAUGGCAACUCUAUUUCAAAGAAUAAAAGCCUUUGGAGAGUUGCGGCAGUUCUGGGGGCGGGCUCAGGAGAGUCCAUAGAUGGAAUUCUCGGGUGCCAA: 0.417
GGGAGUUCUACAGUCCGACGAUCCCCAUGGGCCCUCGGGCCUGACCAAUCCAGACGAGGCAGAGAGCAGCAGCGACUCAAGGGCCGUGUGUACAUAUGUAAAUGAGAAAUAGACAUGUCAACAAGAUACAUUCUGGAAUUCUCGGGUGCCAA: 0.508
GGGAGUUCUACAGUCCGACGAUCAACACCAUGACUACUUCAUUUCUAGCUAAAUCAGAACUGCCUUCAACACUGGAGAAAGGGAGAAGUACUGCGCAACAGAGAUUAGAAGUCCAAAUGUGAAUGGCUGCAGGUGGAAUUCUCGGGUGCCAA: 0.404
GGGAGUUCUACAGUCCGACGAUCUUGUGGGCAGGGAGGGCAGAAAUAAAGUCUGCAGCCGUGCCACUCCUUGGGUCAAAAGGACACGCAGACUUUUGGGUCAUUCUUUGGACAGGUGAUCUGUAGCAAGCCUUUGGAAUUCUCGGGUGCCAA: 0.367
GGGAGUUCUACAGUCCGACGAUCUUAAGGGGGUCUGCAUUUUAAAUGCAGAUGUGAAGCACUUGUAUAUAAAUAAAAGUAAAUACUAUAAUACAAAGUUCCUUCUGAAAUAAAAGUAGAUCUGGUAAAAAUGUUGGAAUUCUCGGGUGCCAA: 0.652
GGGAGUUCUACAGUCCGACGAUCUUCUGCCACAGGUCUGCCGAUGCCCUGUCCACUGCCUACACAUGACAGACAAGUAACCCCCUCAUGGGGGAUGGGGACCUACCUGGCUCCUCAGCCAGCACCCAGCUUAAUGGAAUUCUCGGGUGCCAA: 0.433
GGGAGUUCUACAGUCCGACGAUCAGAUGGUUUUUGUUAAAUCUACUAAUAAACUGUUCUCUUAGUAGAUUAAGAGAGAGUAAUAUUAAUUGUGCAUGUGCAGUUGUAUUUCUCAUUAACUGACAGUAUGCCCAUGGAAUUCUCGGGUGCCAA: 3.83
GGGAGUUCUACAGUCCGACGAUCGUAUCUUGUUCAGUGUCGUCAAGGUUGGGCUUCACGUCUCACUGCAGUGGAGCGAGCGGACAUUCUGAUCGCUGCAUUUCUUUAGAUCUCGGAGCUAAGUGUAUAUAUGAUGGAAUUCUCGGGUGCCAA: 0.597

Sample 5
Target: Sal-like protein 4, full length isoform B (SALL4, Homo sapiens, UniProt Q9UJQ4-2, residues 1-616)
Method: universal PBM
Molecule type: double-stranded DNA, one strand shown
Medium: in vitro
Tested at: not given
Setting: 8-mer, flanks averaged, mean of replicates
Direction: higher = stronger binding
Measurement: E-score
CCTGCCAA: -0.11
ACTCTGTA: 0.0987
AGGTGTTC: -0.0805
CCTCATAG: -0.0261
ATTATGCC: 0.276
ACCATTGC: 0.0194
AGTCCCCC: -0.302
CAATGGCG: -0.275
CTTACGCC: 0.0275
ACTGTGGG: -0.277
ATGAACCA: 0.211
AGCGGGTG: -0.19
AAAGCGGA: -0.0246
CAGGGCCA: -0.276
ATGTACCA: 0.14
ACAACTGC: -0.0166
TCGATAGA: 0.172
